Assay results collected from several papers.
Each line is one published result; not all experiments were run side by side. ± gives the spread as reported.

`CC(C)[C@H](NC(=O)[C@@H]1CCCN1C(=O)[C@H](CCCNC(=N)N)NC(=O)[C@H](CS)NC(=O)[C@H](Cc1c[nH]c2ccccc12)NC(=O)[C@H](CCCNC(=N)N)NC(=O)[C@@H](Cc1ccccc1)NC(=O)[C@H](Cc1c[nH]cn1)NC(=O)[C@H](CCC(=O)O)NC(=O)[C@H](CS)NC(=O)[C@H](CS)NC(=O)[C@@H]1CC(=O)N[C@@H](CCCNC(=N)N)C(=O)NCC(=O)N[C@@H](CC(=O)O)C(=O)N[C@H](Cc2ccc(O)cc2)C(=O)N1)C(N)=O` [technetium-99m labelled] has a tissue uptake of 8.24 ± 2.27 %ID/g (C57 mouse, female, B16/F1 melanoma, lung; intravenous, 0.037 MBq, 0.5 h).
For `CCCC[C@H](NC(=O)CNC(=O)CNC(=O)CN1CCN(CC(=O)O)CCN(CC(=O)O)CCN(CC(=O)O)CC1)C(=O)N[C@H]1CC(=O)NCCCC[C@@H](C(N)=O)NC(=O)[C@H](Cc2c[nH]c3ccccc23)NC(=O)[C@H](CCCNC(=N)N)NC(=O)[C@@H](Cc2ccccc2)NC(=O)[C@H](Cc2c[nH]cn2)NC1=O` [lead-203 labelled], the tissue uptake was 0.16 ± 0.07 %ID/g (C57 mouse, heart; intravenous, 0.056 MBq, 24 h).
For `CCCC[C@H](NC(=O)CNC(=O)CNC(=O)CN1CCN(CC(=O)O)CCN(CC(=O)O)CC1)C(=O)N[C@H]1CC(=O)NCCCC[C@@H](C(N)=O)NC(=O)[C@H](Cc2c[nH]c3ccccc23)NC(=O)[C@H](CCCNC(=N)N)NC(=O)[C@@H](Cc2ccccc2)NC(=O)[C@H](Cc2c[nH]cn2)NC1=O` [copper-64 labelled], the tissue uptake was 9.28 ± 0.77 %ID/g (female C57 mouse, B16/F1 melanoma, kidneys; intravenous, 0.037 MBq, 0.5 h).
The tissue uptake of `CN1C(=O)[C@@H](Cc2ccc(O)c(I)c2)NC(=O)CNC(=O)[C@H](Cc2ccc3ccccc3c2)NC(=O)[C@H](CCCNC(=N)N)NC(=O)[C@H]1CCCNC(=O)c1ccc(CNC(=O)CN2CCN(CC(=O)O)CCN(CC(=O)O)CCN(CC(=O)O)CC2)cc1` [lutetium-177 labelled] is reported as 0.02 ± 0.002 %ID/g (female CB-17 SCID mouse, Daudi xenograft, brain; intravenous, 6 h, CXCR4 blocking, added: AMD3100 2 mg/kg coinjected).
For `CN(C)c1ccc(-c2nc3ccc(OCCCCCN4CCN5CCN(CC4)CC(=O)[O][Al]([18F])[O]C(=O)C5)cc3s2)cc1`, the tissue uptake was 1.44 ± 0.53 %ID/g (ICR mouse, bone; intravenous, 60 min).
With `CCCC[C@H](NC(=O)CNC(=O)CNC(=O)CN1CCN(CC(=O)O)CCN(CC(=O)O)CCN(CC(=O)O)CC1)C(=O)N[C@H]1CC(=O)NCCCC[C@@H](C(N)=O)NC(=O)[C@H](Cc2c[nH]c3ccccc23)NC(=O)[C@H](CCCNC(=N)N)NC(=O)[C@@H](Cc2ccccc2)NC(=O)[C@H](Cc2c[nH]cn2)NC1=O` [copper-64 labelled] the tissue uptake was 3.76 ± 0.54 %ID/g (female C57 mouse, B16/F1 melanoma, lung; intravenous, 0.037 MBq, 0.5 h).
For `CC(C)[C@H](NC(=O)[C@@H]1CCCN1C(=O)[C@H](CCCNC(=N)N)NC(=O)[C@H](CS)NC(=O)[C@H](Cc1c[nH]c2ccccc12)NC(=O)[C@H](CCCNC(=N)N)NC(=O)[C@@H](Cc1ccccc1)NC(=O)[C@H](Cc1c[nH]cn1)NC(=O)[C@H](CCC(=O)O)NC(=O)[C@H](CS)NC(=O)[C@H](CS)NC(=O)CNC(=O)[C@@H]1CC(=O)N[C@@H](CCCNC(=N)N)C(=O)NCC(=O)N[C@@H](CC(=O)O)C(=O)N[C@H](Cc2ccc(O)cc2)C(=O)N1)C(N)=O` [technetium-99m labelled], the tissue uptake was 0.2 ± 0.05 %ID/g (C57 mouse, female, B16/F1 melanoma, heart; intravenous, 0.037 MBq, 24 h).
`O=C([O-])CN1CCN(CC(=O)[O-])CCN(CC(=O)NCCc2ccc3c(c2)C2C=CCC2C(c2cc4c(cc2Br)OCO4)N3)CCN(CC(=O)[O-])CC1.[111In+3]` (centres unmarked) has a tissue uptake of 0.69 ± 0.1 %ID/g (mouse, Hec50 endometrial tumour, muscle; 0.5 h post injection).

A few entries again:
`O=C([O-])CN1CCN(CC(=O)[O-])CCN(CC(=O)NCCc2ccc3c(c2)C2C=CCC2C(c2cc4c(cc2Br)OCO4)N3)CCN(CC(=O)[O-])CC1.[111In+3]` (centres unmarked) has a tissue uptake of 0.69 ± 0.1 %ID/g (mouse, Hec50 endometrial tumour, muscle; 0.5 h post injection).
